Assay results from different studies.
Compare with care: the assays were run in different laboratories. “And” joins repeats or separate records; there may be more than shown. Numbers after ± are the reported error.

`CCCCCOc1ccc(-c2ccc(-c3ccc(C(=O)N[C@H]4C[C@@H](O)[C@@H](OCC[N+](C)(C)C)NC(=O)[C@@H]5[C@@H](O)[C@@H](C)CN5C(=O)[C@H]([C@@H](C)O)NC(=O)[C@H]([C@H](O)[C@@H](O)c5ccc(O)cc5)NC(=O)[C@@H]5C[C@@H](O)CN5C(=O)[C@H]([C@@H](C)O)NC4=O)cc3)cc2)cc1` gave a Cmin of 2360 ng/mL (adult patients not in ICU, plasma; intravenous, 400 mg loading dose, after first dose, arithmetic mean).
`Nc1ncnc2c1ncn2[C@@H]1O[C@@H]2COP(=O)([S-])O[C@@H]3[C@H](O)[C@@H](COP([O-])(=S)O[C@H]2[C@H]1O)O[C@H]3n1cnc2c(N)ncnc21.[Na+].[Na+]` (stereo partly drawn) gave a triglycerides of 1.33 ± 0.13 mmol/L (non-tumor-bearing mice, serum; intravenous, 1 mg/kg, toxicity study).
With `CC(=O)c1c(C)c2cnc(Nc3ccc(C4CCN(CCS(C)(=O)=O)CC4)cn3)nc2n(C2CCCC2)c1=O` the AST increased was 30.9% (HR+/HER2- advanced breast cancer patients; oral, dose not given, all grades).
Under “AE leading dose modification”, `O=C(c1ccc(F)c(F)c1Nc1ccc(I)cc1F)N1CC(O)([C@@H]2CCCCN2)C1` is recorded as 36% (patients aged 6 to sample A years; oral, dose not given).
`O=c1cc(-c2ccc(O)c(O)c2)oc2cc(O)cc(O)c12`: “amount excreted in urine” 92.9 ± 32.2 ng (Sprague-Dawley rat, male, lean, urine; oral, 100 mg/kg of neohesperidin, 48 h, after β-glucuronidase/sulfatase, total).
`CN1CC[C@@H](c2c(O)cc(O)c3c(=O)cc(-c4ccc(C(F)(F)F)cc4Cl)oc23)[C@@H]1CO`: “patients with adverse event” 12.5% (measured: Constipation; B-cell malignancies or AML; oral, 100 mg, continuous dosing).
The tissue uptake of `CC[C@H](C)[C@H](NC(=O)[C@H](Cc1ccccc1)NC(=O)[C@H](CCC(=O)O)NC(=O)[C@H](CCCNC(=N)N)NC(=O)[C@H](C)NC(=O)[C@H](C)NC(=O)[C@H](CCC(N)=O)NC(=O)[C@H](CCC(=O)O)NC(=O)[C@H](CCC(=O)O)NC(=O)[C@H](CC(C)C)NC(=O)[C@H](Cc1ccc(O)cc1)NC(=O)[C@H](CO)NC(=O)[C@H](CO)NC(=O)[C@@H](NC(=O)[C@H](CC(=O)O)NC(=O)[C@H](CO)NC(=O)[C@@H](NC(=O)[C@H](Cc1ccccc1)NC(=O)[C@@H](NC(=O)CNC(=O)[C@H](CCC(=O)O)NC(=O)[C@H](C)NC(=O)CCc1cnc[nH]1)[C@@H](C)O)[C@@H](C)O)C(C)C)C(=O)N[C@@H](C)C(=O)N[C@@H](Cc1c[nH]c2ccccc12)C(=O)N[C@@H](CC(C)C)C(=O)N[C@H](C(=O)N[C@@H](CCCNC(=N)N)C(=O)NCC(=O)N[C@@H](CCCNC(=N)N)C(=O)N[C@@H](CCCCNC(=O)COCCOCCNC(=O)COCCOCCNC(=O)CC[C@H](NC(=O)CCCCCCCCCCCCCCCCC(=O)O)C(=O)O)C(=O)NCC(=O)NCC(=O)N[C@@H](CO)C(=O)N[C@@H](CCCCNC(=O)[C@H](CCCCNc1c(NCCCCCN(O)C(=O)CCC(=O)NCCCCCN(O)C(=O)CCC(=O)NCCCCCN(O)C(C)=O)c(=O)c1=O)Nc1c(NCCCCCN(O)C(=O)CCC(=O)NCCCCCN(O)C(=O)CCC(=O)NCCCCCN(O)C(C)=O)c(=O)c1=O)C(=O)O)C(C)C` [zirconium-89 labelled] is reported as 0.707 %ID/g and 0.593 %ID/g and 0.664 %ID/g and 0.753 %ID/g and 0.655 %ID/g (ex vivo gamma counting; Sprague-Dawley rat, male, lung; intravenous, 1 nmol, 24 h).
For `CC(C)CC(=O)OC[C@H]1O[C@@](C#N)(c2ccc3c(N)ncnn23)[C@H](O)[C@@H]1O`, the remaining compound was 0% (mouse whole blood; 5 µM, 30 min).
The deaths of `C[C@@H](c1ncncc1F)[C@](O)(Cn1cncn1)c1ccc(F)cc1F` is reported as 0% (human; oral, 400 mg, drug interaction trial).
`NC(=O)[C@H]1CCN(c2ncnc(N)c2F)C[C@@H]1N1CCC[C@@H](Nc2cc(Cl)cc(C(F)(F)F)c2)C1=O`: “grade ≥3 platelet decrease” 0% (B-cell malignancy patients; oral, 246 mg twice daily, dose).
`C[C@]1(CO)Cc2ncn(-c3ccc(C#N)c(Cl)c3)c2C(=O)O1`: “drug-related Acne incidence” 0% (Chinese subjects; dose not given, all doses total).
`O=C(NCCN1CCCC1)c1cc(-c2ccc(CN3CCOCC3)cc2)nc2ccc(F)cc12`: “concentration at 24 h” 11 nM (NMRI mouse Plasmodium berghei-infected, blood; oral, 0.6 mg/kg, 24 h, monotherapy).
`CC(C)C[C@H](NC(=O)[C@H](CCCCN)NC(=O)OCC1c2ccccc2-c2ccccc21)C(=O)N[C@H](C(=O)N[C@@H](Cc1ccccc1)C(=O)N[C@@H](Cc1ccccc1)C(=O)N[C@@H](CCCCN)C(=O)NCC(=O)N[C@@H](Cc1ccccc1)C(=O)N[C@@H](C)C(=O)N[C@@H](Cc1c[nH]c2ccccc12)C(=O)N[C@@H](CC(N)=O)C(=O)N[C@H](C(=O)N[C@H]1CSSC[C@@H](C(=O)N[C@@H](Cc2c[nH]cn2)C(=O)N[C@@H](CCCNC(=N)N)C(=O)N[C@@H](CCCNC(=N)N)C(=O)N[C@@H](C)C(=O)N[C@@H](CC(N)=O)C(N)=O)NC(=O)[C@H](C(C)C)NC(=O)[C@H](CCCNC(=N)N)NC(=O)[C@H](C(C)C)NC(=O)CNC(=O)[C@H](CC(N)=O)NC(=O)[C@H](CCCNC(=N)N)NC(=O)[C@H](Cc2ccc(O)cc2)NC(=O)[C@H](C(C)C)NC1=O)C(C)C)C(C)C` has an AST/ALT ratio of 0.61 ± 0.02 (ICR mouse, blood; intramammary, 10 mg/kg, day 5, 3 d dosing).
For `N[C@@H]1c2ccccc2OC12CCN(c1cnc3c(N4CCCc5ncccc54)n[nH]c3n1)CC2`, “TEAE leading to death” read 0% (patients advanced metastatic solid tumours; oral, 60 mg once daily, pooled RP2D cohorts).
The bone uptake of `[2H]C([2H])([18F])[C@]([2H])(N)C(=O)O` is reported as about 2 %ID/cc (PET; athymic nude mouse, U-87 MG tumour; 90 min scan).
With `O=c1ccc2cc3ccoc3cc2o1` the accuracy was 91.6% (three freeze-thaw cycles; rat plasma; 200 ng/mL, -70 °C freeze).
For `COc1ncccc1-c1cnn2ccc(N3CCN(C(=O)OC(C)C)CC3)nc12`, the drug concentration was 2400 nM (rat, thermal hyperalgesia model, plasma; oral, 30 mg/kg, 180 min).
For `CCc1ccc(CC/C=C/c2ccc3c(c2)C(=O)CC3)cc1`, the Globulin was 19.8 g/L (Sprague-Dawley rat, male; oral, 120 mg/kg/day, 14 days).
For `COc1cc2c(Oc3ccc4[nH]c(C)cc4c3F)ccnc2cc1OCC1(N)CC1`, “grade 1 or 2 sinus arrhythmia” read 0% (paediatric recurrent refractory sarcoma; 8 mg).
With `CC[C@H](C)[C@@H]1NC(=O)[C@@H]2CCCN2C(=O)[C@H](CC(C)C)NC(=O)[C@H](CC(C)C)NC(=O)CNC(=O)[C@@H](NC(=O)[C@@H](NC(=O)[C@H](CC(=O)O)NC(=O)CNC(=O)[C@@H](NC(=O)[C@H](C)NC(=O)CNC(=O)[C@H](CCCCN)NC(=O)[C@H](CC(C)C)NC(=O)[C@H](CC(C)C)NC(=O)[C@H](CCCCN)NC(=O)CNC(=O)[C@@H](NC(=O)[C@@H](N)CC(C)C)C(C)C)C(C)C)C(C)C)CSSC[C@@H](C(=O)O)NC1=O` the clearance was 3.15 ± 0.42 mL/min (female C57BL/6 mice, plasma; intravenous, 10 mg/kg).
The APD90 change of `COc1ccc(CCC2CCCC(CCc3ccc(OC)cc3)N2C[C@@H](O)CO)cc1.Cl` (stereo in doubt) is reported as 27.9 ± 3.1% (rabbit Purkinje fibres; 0.3 µM, cycle length 0.5 s; reference: baseline).
For `CO[C@H]1C[C@@H]2CC[C@@H](C)[C@@](O)(O2)C(=O)C(=O)N2CCCC[C@H]2C(=O)O[C@H]([C@H](C)C[C@@H]2CC[C@@H](OC(=O)NCCOCCOCCOCCOCCOCCOCCOCCOCCC(=O)N3CCc4cc(Cn5nc(-c6ccc7oc(N)nc7c6)c6c(N)ncnc65)ccc4C3)[C@H](OC)C2)C[C@@H](O)[C@H](C)/C=C(\C)[C@@H](O)[C@@H](OC)C(=O)[C@H](C)C[C@H](C)/C=C/C=C/C=C/1C`, “serious AE incidence” read 33% (dose-escalation trial; patients with advanced solid tumours; intravenous, all doses weekly).
For `O=C(O)CCCOc1ccc(F)cc1-c1cc(-c2ccccc2C(F)(F)F)n(-c2ccccc2)n1`, the pituitary weight was 15.7 ± 2 mg (Crl:CD(SD) rat, female; intravenous, 25 µg/kg, 1 days post-dose).
For `CC(C)Nc1ccnc(Nc2cccc(-c3cccnc3)c2)n1`, the blood chemistry was 0.27 mg/dL (measured: total bilirubin; mouse, blood; intraperitoneal, 3 mg/kg).
For `CC(C)(C)c1cc(-n2nc3ccccc3n2)c(O)c(C(C)(C)C)c1`, “daily dermal uptake, percentile” read 4.33 ng/kg body weight/day (exposure assessment; human, age 16-21 years; concentration not given, cream, 95th percentile).
`Oc1ccc(CSCc2ccc(O)cc2)cc1` has a body weight of 30.4 ± 0.69 g (ICR mice male; oral, 3000 mg/kg, day 1 before dosing, acute toxicity).
Under “serious adverse event incidence”, `COc1ccc(-c2c(-c3ccc(C#N)c(F)c3)nc(N3CCC(N)CC3)n(C)c2=O)cc1F` is recorded as 0% (measured: Hypokalemia; human patients; oral, 60 mg, dose expansion).
